Published values gathered from unrelated publications.
± gives the spread as reported. Non-standard residues stand in square brackets, D forms with d. Square brackets hold non-standard residues; d marks the D form. Bridges are numbered along the chain shown (N, C = ends). Primed or numbered codes have the meaning given here. Where no end group is shown, it is not given here. Ends that are not written are not given here. No end group written: not given here. [ ]: non-standard residue; d: D form.
Rbpj: Rbpj 53-474 (Mus musculus, UniProt P31266)
UniProt P31266, sequence (whole entry, unmodified, looked up): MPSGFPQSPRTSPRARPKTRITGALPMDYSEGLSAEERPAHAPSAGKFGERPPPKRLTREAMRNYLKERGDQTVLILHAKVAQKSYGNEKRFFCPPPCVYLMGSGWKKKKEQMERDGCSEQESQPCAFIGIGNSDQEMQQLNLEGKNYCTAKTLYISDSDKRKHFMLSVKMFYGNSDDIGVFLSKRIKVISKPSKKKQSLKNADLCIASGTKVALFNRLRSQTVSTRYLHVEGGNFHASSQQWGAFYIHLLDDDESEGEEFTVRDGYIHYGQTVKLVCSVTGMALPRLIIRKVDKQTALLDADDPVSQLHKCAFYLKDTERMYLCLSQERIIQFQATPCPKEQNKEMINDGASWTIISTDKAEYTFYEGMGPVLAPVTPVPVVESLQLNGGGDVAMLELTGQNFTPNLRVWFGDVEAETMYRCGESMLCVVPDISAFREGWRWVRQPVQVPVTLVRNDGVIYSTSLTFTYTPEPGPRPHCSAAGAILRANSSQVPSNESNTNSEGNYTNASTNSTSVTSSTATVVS
PCNA: PCNA (Homo sapiens, UniProt P12004)
UniProt P12004, sequence (whole entry, looked up): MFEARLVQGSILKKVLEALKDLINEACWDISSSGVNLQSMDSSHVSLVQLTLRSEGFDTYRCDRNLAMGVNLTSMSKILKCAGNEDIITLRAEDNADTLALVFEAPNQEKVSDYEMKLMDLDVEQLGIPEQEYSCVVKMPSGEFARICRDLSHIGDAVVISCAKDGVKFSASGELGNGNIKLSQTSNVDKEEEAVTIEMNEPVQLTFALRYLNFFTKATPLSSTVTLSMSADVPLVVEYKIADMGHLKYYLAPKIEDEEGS
UniProt P38927, sequence (whole entry, looked up): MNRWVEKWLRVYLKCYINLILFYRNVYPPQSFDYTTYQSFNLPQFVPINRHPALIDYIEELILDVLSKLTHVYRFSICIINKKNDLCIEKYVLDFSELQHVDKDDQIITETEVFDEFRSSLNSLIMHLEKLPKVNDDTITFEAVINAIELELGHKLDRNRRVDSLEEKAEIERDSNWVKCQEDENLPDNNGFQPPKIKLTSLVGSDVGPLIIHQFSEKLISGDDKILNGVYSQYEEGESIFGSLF
UniProt P11309, sequence (whole entry, looked up): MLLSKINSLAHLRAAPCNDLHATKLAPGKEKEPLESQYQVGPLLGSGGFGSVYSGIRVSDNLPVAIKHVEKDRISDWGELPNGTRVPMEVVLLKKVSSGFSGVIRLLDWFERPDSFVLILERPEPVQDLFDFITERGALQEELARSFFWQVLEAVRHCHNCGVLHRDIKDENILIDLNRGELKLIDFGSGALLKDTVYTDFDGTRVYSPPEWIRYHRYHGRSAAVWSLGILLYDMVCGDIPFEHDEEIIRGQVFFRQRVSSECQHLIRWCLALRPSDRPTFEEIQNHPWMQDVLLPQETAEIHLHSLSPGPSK
UniProt O15392, sequence (whole entry, looked up): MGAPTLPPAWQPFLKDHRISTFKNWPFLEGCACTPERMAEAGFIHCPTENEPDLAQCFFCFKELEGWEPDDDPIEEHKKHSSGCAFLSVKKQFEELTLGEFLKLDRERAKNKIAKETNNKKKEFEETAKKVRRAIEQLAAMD
UniProt O43791, sequence (whole entry, looked up): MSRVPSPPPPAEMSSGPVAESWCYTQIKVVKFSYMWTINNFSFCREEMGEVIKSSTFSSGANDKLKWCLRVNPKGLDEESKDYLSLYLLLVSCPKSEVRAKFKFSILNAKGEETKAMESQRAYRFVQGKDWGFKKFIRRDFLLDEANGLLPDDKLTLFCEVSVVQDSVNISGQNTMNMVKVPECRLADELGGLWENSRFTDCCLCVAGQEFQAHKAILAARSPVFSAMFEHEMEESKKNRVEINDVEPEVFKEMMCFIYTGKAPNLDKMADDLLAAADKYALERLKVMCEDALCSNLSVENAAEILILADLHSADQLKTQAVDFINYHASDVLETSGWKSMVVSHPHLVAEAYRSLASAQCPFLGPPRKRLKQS
UniProt Q15109, sequence (whole entry, looked up): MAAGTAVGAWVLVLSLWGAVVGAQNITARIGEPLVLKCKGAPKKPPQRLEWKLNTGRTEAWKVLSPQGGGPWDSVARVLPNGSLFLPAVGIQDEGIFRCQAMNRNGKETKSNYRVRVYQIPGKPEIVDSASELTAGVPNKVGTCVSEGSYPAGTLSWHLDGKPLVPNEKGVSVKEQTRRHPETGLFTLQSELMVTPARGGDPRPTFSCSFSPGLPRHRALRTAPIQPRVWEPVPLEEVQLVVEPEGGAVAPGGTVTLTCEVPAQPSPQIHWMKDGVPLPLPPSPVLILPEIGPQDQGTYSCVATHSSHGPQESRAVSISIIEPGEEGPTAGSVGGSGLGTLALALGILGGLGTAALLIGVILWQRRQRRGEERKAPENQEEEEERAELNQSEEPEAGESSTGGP
UniProt Q9Y6K9, sequence (whole entry, unmodified, looked up): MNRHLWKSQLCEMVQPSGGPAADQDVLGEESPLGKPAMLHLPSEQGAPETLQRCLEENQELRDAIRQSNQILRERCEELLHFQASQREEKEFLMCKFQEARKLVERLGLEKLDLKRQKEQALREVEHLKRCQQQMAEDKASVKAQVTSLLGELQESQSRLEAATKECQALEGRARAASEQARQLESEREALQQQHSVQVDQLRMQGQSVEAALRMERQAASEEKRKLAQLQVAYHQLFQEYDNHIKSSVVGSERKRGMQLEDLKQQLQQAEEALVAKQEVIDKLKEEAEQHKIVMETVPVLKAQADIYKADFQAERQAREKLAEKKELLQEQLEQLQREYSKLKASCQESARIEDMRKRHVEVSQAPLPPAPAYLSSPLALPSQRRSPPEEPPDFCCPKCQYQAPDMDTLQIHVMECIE
UniProt P35269, sequence (whole entry, looked up): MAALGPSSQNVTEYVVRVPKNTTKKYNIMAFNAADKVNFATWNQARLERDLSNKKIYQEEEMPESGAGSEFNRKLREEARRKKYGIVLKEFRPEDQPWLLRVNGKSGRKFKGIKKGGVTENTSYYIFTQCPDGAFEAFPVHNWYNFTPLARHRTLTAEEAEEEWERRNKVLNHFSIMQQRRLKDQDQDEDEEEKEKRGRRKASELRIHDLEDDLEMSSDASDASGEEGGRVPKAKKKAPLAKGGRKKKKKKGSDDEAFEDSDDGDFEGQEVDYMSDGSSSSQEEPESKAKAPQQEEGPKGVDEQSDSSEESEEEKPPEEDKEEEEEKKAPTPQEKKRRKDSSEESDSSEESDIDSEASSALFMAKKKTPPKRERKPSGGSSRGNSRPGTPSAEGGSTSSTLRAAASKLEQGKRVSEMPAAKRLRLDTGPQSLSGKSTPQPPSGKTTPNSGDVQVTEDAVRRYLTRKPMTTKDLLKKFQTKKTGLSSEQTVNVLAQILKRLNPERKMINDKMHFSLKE
UniProt Q99828, sequence (whole entry, looked up): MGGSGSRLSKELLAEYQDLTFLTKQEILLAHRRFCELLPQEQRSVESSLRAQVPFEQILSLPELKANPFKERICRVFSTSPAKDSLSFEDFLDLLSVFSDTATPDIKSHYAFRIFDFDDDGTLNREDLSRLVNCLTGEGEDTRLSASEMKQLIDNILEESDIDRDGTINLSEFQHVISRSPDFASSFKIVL

Substance | partner | assay | system | conditions | Kd [nM]
MENVKKRTATTTWMVPTAQ (L3MBTL3 52-70 A58R (Homo sapiens, UniProt Q96JM7-2); sequence looked up) | Rbpj | ITC | peptide | pH 6.5, 25 °C, NaCl 150 mM, one site model | 540
MPIFLDHILNKFLILHYA (SPAM peptide parental) | CD274 extracellular domain (Homo sapiens) | SPR | peptide |  | 36 ± 29
MENVKKATATTTWMVPAAQ (L3MBTL3 52-70 T68A (Homo sapiens, UniProt Q96JM7-2); sequence looked up) | Rbpj | ITC | peptide | pH 6.5, 25 °C, NaCl 150 mM, one site model | 1200
KPTFDMFSSWKYALKPPTYDAVQKWYNKVPSMGNK (REV3 595-629 (Saccharomyces cerevisiae, UniProt P14284)) | REV7 1-245 (Saccharomyces cerevisiae, UniProt P38927) | ITC | peptide | pH 8.4, 25 °C, NaCl 100 mM | 19.6 ± 6
EDGGSFWYGGMKALYG (designed peptide A5G) | CIB1 (Homo sapiens, UniProt Q99828) | ITC | peptide | 25 °C, with: CaCl2 0.1 mM | 1990
MENVKKATATTWMVPTAQ (L3MBTL3 52-70 del62 (Homo sapiens, UniProt Q96JM7-2); sequence looked up) | Rbpj | ITC | peptide | pH 6.5, 25 °C, NaCl 150 mM, one site model | 990
PAKKSEELVAEAHNLSTLLENAIQDTVREQDQSFTALDWSWLQTE (IKBKB 701-745 C716S (Homo sapiens, UniProt O14920); sequence looked up) | IKBKG 2-419 C11A/C76A/C95A/C131A/C167A (Homo sapiens, UniProt Q9Y6K9) | competition with labelled peptide, fluorescence polarisation |  | pH 7.4 | 32
Ac-SAAASSSWH[S5]LFT[S5]EEGQLYG-NH2 (AR 426-446 T435X/A439X (Homo sapiens); staple 10-14; stapled i,i+4; N-acetyl; C-amide; S5 = C=CCCC[C@](C)(N)C(=O)O) | GTF2F1 450-517 (Homo sapiens, UniProt P35269) | NMR titration | peptide | pH 7.4, 298 K | 125000 ± 3000
FKDLGEE (ALB 11-17 (Homo sapiens)) | AGER 24-125 (Homo sapiens, UniProt Q15109) | fluorescence titration | peptide | 100 nM, pH 6.5, 25 °C, NaCl 100 mM | 673000 ± 38000
HIF1A plus GSC N826D, Alexa Fluor 488 on C-terminal Cys (sequence not shown) | Crebbp fragment (Mus musculus) | fluorescence polarisation |  | pH 6.8, 25 °C, NaCl 50 mM | 1900
YAG[pS][pT]DENTDSE (XRCC1 residues 515-526 (Homo sapiens); pS518/pT519; pS = N[C@@H](COP(=O)(O)O)C(=O)O; pT = C[C@@H](OP(=O)(O)O)[C@H](N)C(=O)O) | PNKP (Homo sapiens, UniProt Q96T60) | ITC | peptide |  | 1570
MENVKKATATTTWMVPTAQ (L3MBTL3 52-70 (Homo sapiens, UniProt Q96JM7-2); sequence looked up) | Rbpj 53-474 E260A (Mus musculus, UniProt P31266) | ITC | peptide | pH 6.5, 25 °C, NaCl 150 mM, one site model | 3800
KRRMKSIDTFFHSKR-NH2 (CDKN1A/RNASEH2B (Homo sapiens); C-terminal amide) | PCNA | SPR | peptide |  | 640
{FITC′}-SNPDLPNKSNLKFNKPKGPLRKRRT (TWF1 308-332 (Saccharomyces cerevisiae); N-terminal FITC; FITC′ = fluorescein isothiocyanate) | CAP1/CAP2 (Saccharomyces cerevisiae) | fluorescence polarisation | peptide |  | 271
KRRQTSATDFYHSKR-NH2 (CDKN1A 141-155 M147A (Homo sapiens, UniProt P38936); C-terminal amide) | PCNA | SPR | peptide |  | 7590
RRRRRRRRKKPGLRRRQ[pT] (CDKN1B 189-198 (Homo sapiens); phosphothreonine 198; pT = C[C@@H](OP(=O)(O)O)[C@H](N)C(=O)O) | PIM1 (Homo sapiens, UniProt P11309) | SPR | peptide |  | 968
AR[pT]KQTARKSTG (H3C1 1-12; pT3; pT = C[C@@H](OP(=O)(O)O)[C@H](N)C(=O)O) | birc5.1 R89H (Xenopus laevis, UniProt Q8JGN5) | ITC | peptide | pH 7.8, 25 °C, NaCl 50 mM | 4800 ± 500
PATPTASSSSSTTPT (TP53BP1 1636-1650 (Homo sapiens, UniProt Q12888); sequence looked up) | SPOP MATH domain 28-164 (Homo sapiens, UniProt O43791) | ITC | peptide | 10 °C, NaCl 100 mM, one-site model | 60700 ± 8100
MENAKKATATTTWMVPTAQ (L3MBTL3 52-70 V55A (Homo sapiens, UniProt Q96JM7-2); sequence looked up) | Rbpj | ITC | peptide | pH 6.5, 25 °C, NaCl 150 mM, one site model | 870
KRRQTSMDDFYHSKR-NH2 (CDKN1A 141-155 T148D (Homo sapiens, UniProt P38936); C-terminal amide) | PCNA | SPR | peptide |  | 96.5
AR[pT][Lys(Me2)]QTARKSTG (histone H3 2-13 (UniProt P68431); pT3, K4me2; pT = C[C@@H](OP(=O)(O)O)[C@H](N)C(=O)O; Lys(Me2) = CN(C)CCCC[C@H](N)C(=O)O; sequence looked up) | BIRC5 1-142 (Homo sapiens, UniProt O15392) | ITC | peptide | pH 7.2 | 2820 ± 160
MWPHRVTAAK (peptide; cyclic DSG, fluorescein) | MAP1LC3B (Homo sapiens, UniProt Q9GZQ8) | fluorescence polarisation | peptide |  | 194 ± 52

A few entries again:
Substance | partner | assay | system | conditions | Kd [nM]
KPTFDMFSSWKYALKPPTYDAVQKWYNKVPSMGNK (REV3 595-629 (Saccharomyces cerevisiae, UniProt P14284)) | REV7 1-245 (Saccharomyces cerevisiae, UniProt P38927) | ITC | peptide | pH 8.4, 25 °C, NaCl 100 mM | 19.6 ± 6
EDGGSFWYGGMKALYG (designed peptide A5G) | CIB1 (Homo sapiens, UniProt Q99828) | ITC | peptide | 25 °C, with: CaCl2 0.1 mM | 1990
MENVKKATATTWMVPTAQ (L3MBTL3 52-70 del62 (Homo sapiens, UniProt Q96JM7-2); sequence looked up) | Rbpj | ITC | peptide | pH 6.5, 25 °C, NaCl 150 mM, one site model | 990
